Literature values, collected from citations in different studies.
Each line is one published result; not all experiments were run side by side. ± marks the error that the study gave. Converted amounts (≈) assume the structure as drawn.
lasR: Transcriptional activator protein LasR (lasR, Pseudomonas aeruginosa, UniProt P25084)
pyrG: pyrG (Escherichia coli, UniProt P0A7E5)

CCCCCCCCCNC(=O)CC(=O)c1ccccc1 — IC50 (lasR; reporter gene, antagonist, rsaL-yfp reporter; PAO-MW1): 10 µM
Nc1ccn(C2OC(COP(=O)(O)OP(=O)(O)OP(=O)(O)O)C(O)C2O)c(=O)n1 (stereo not drawn) — IC50 (pyrG; enzyme activity, inhibitor; wild type, added: UTP 0.20 mM): > 1000 µM
O=C(Cc1ccc(Br)cc1)N[C@H]1CCOC1=O — IC50 (lasR; reporter gene, antagonist, lasI-lacZ reporter; Escherichia coli): 6 µM
Cc1ccc(NC(=O)Cn2cc(COc3ccccc3C=O)nn2)cc1C — IC50 (Cholinesterase (BCHE, Homo sapiens, UniProt P06276); inhibitor): 1.72 µM
NC(Cc1cc(O)c(O)cc1O)C(=O)O (stereo not drawn) — IC50 (DNA dC->dU-editing enzyme APOBEC-3B, C-terminal domain (Homo sapiens, UniProt Q9UH17)): 0.15 µM
NCc1cn([C@@H]2[C@@H](OCCCl)O[C@H](CO)[C@@H](O)[C@@H]2O)nn1 — IC50 (C-type lectin domain family 4 member M, extracellular domain (CLEC4M, Homo sapiens, UniProt Q9H2X3); binding to SARS-CoV-2 spike, inhibitor, surface plasmon resonance; added: spike surface 1766 RU): 285 ± 21.2 µM
Cc1noc(C)c1-c1cc(N)c2ncn(Cc3ccc(C4CO4)cc3)c2c1 (stereo not drawn) — IC50 (Bromodomain-containing protein 4, BD2 (BRD4, Homo sapiens, UniProt O60885); biochemical; bromodomain 2): 0.05 µM
CC[C@H](C)[C@H](NC(=O)[C@@H]1CCCN1C(=O)CNC(=O)[C@H](CC(C)C)NC(=O)[C@H](CCCCN)NC(=O)[C@H](CCCNC(=N)N)NC(=O)[C@H](Cc1c[nH]c2ccccc12)NC(=O)[C@H](C)NC(=O)[C@H](CC(N)=O)NC(=O)[C@H](CCCCN)NC(=O)[C@H](CC(C)C)NC(=O)[C@H](CCCCN)NC(=O)[C@H](CC(N)=O)NC(=O)[C@H](CCCNC(=N)N)NC(=O)[C@H](C)NC(=O)[C@H](CCCNC(=N)N)NC(=O)[C@H](CCCNC(=N)N)NC(=O)[C@H](Cc1ccccc1)NC(=O)[C@H](Cc1c[nH]c2ccccc12)NC(=O)CN)C(=O)N[C@H](C(=O)NCC(=O)N1CCC[C@H]1C(=O)N[C@@H](CC(C)C)C(=O)N[C@@H](CC(C)C)C(=O)N[C@H](C(=O)N[C@@H](CCCNC(=N)N)C(=O)O)[C@@H](C)O)C(C)C — MIC (Staphylococcus aureus): 16 µM (≈ 51.3 µg/mL)
Nc1ccn(C2OC(COP(=O)(O)OP(=O)(O)OP(=O)(O)O)C(O)C2(F)F)c(=O)n1 (stereo not drawn) — IC50 (pyrG; enzyme activity, inhibitor; wild type, added: UTP 0.20 mM): 3.9 µM
OC[C@@]12C[C@@H]1[C@@H](n1cnc3c(N[C@H](C4CCC4)C4CC4)nc(Cl)nc31)[C@H](O)[C@@H]2O — Ki (ADORA2A (Homo sapiens, UniProt P29274); binding; added: [3H]CGS21680): 2.69 µM
CC(=O)OC1C(=O)C2(C)C(O)CC3OCC3(OC(C)=O)C2C(OC(=O)c2cccc(OC(F)(F)F)c2)C2(O)CC(OC(=O)C(O)C(C=C(C)C)NC(=O)OC(C)(C)C)C(C)=C1C2(C)C (stereo not drawn) — IC50 (MCF7; cytotoxicity): 0.00098 µM
O=C(/C=C/c1ccc(OCc2ccc([N+](=O)[O-])cc2)cc1)NCCc1c[nH]c2ccccc12 — IC50 (ACHE (Homo sapiens, UniProt P22303)): 34.5 ± 1.71 µM
CC[C@H](C)[C@H](NC(=O)[C@H](CC(C)C)NC(=O)[C@H](CCCNC(=N)N)NC(=O)CNC(=O)CNC(=O)[C@H](CCCCN)NC(=O)[C@H](CCCNC(=N)N)NC(=O)[C@H](CC(C)C)NC(=O)[C@H](CC(C)C)NC(=O)[C@H](CCCNC(=N)N)NC(=O)[C@@H](NC(=O)[C@H](CC(C)C)NC(=O)[C@@H](N)CO)[C@@H](C)O)C(=O)NCC(=O)N[C@@H](Cc1c[nH]c2ccccc12)C(=O)N[C@@H](CCCNC(=N)N)C(=O)N[C@@H](Cc1c[nH]c2ccccc12)C(=O)N[C@@H](CCC(=O)O)C(=O)N[C@@H](CCCCN)C(=O)N[C@H](C(=O)N[C@@H](CCCNC(=N)N)C(=O)N[C@@H](CC(N)=O)C(=O)N[C@@H](Cc1c[nH]c2ccccc12)C(=O)N[C@H](C(=O)N[C@@H](CCCNC(=N)N)C(=O)N[C@@H](CCCNC(=N)N)C(=O)N[C@H](C(=O)N[C@H](C(=O)N[C@@H](CCC(=O)O)C(=O)N[C@@H](CCCCN)C(=O)N[C@@H](CCCNC(=N)N)C(=O)N[C@@H](CCCCN)C(=O)N1CCC[C@H]1C(=O)N[C@@H](CC(N)=O)C(=O)N[C@@H](CCCCN)C(=O)O)[C@@H](C)CC)[C@@H](C)CC)[C@@H](C)CC)[C@@H](C)O — MIC (Staphylococcus aureus): > 128 µM
Nc1ccn(C2OC(COP(=O)(O)OP(=O)(O)OP(=O)(O)O)C(O)C2F)c(=O)n1 (stereo not drawn) — IC50 (pyrG; enzyme activity, inhibitor; wild type, added: UTP 0.05 mM): 35 µM
CCCCCC(=O)NC(C(=O)NCc1ccc(NC(=N)N)cc1)c1ccc(OCc2ccccc2)cc1 (stereo not drawn) — IC50 (Genome polyprotein, NS2B-NS3 protease (dengue virus type 2, UniProt P29990); protease activity, inhibitor; pH 7.5, added: AMC substrate): 25 µM
Cc1nnc(CC2N=C(c3ccc(Cl)cc3)c3ccccc3-n3c(C)nnc32)o1 (stereo not drawn) — IC50 (Bromodomain-containing protein 4, BD1 (BRD4, Homo sapiens, UniProt O60885); biochemical; bromodomain 1): 0.02 µM
CC[C@H](C)[C@H](NC(=O)[C@H](CCCN)NC(=O)[C@H](CCCNC(=N)N)NC(=O)[C@@H]1CCCN1C(=O)[C@@H]1CCCN1C(=O)[C@H](CCCNC(=N)N)NC(=O)[C@@H]1CCCN1C(=O)[C@H](CCCNC(=N)N)NC(=O)[C@@H]1CCCN1C(=O)[C@H](CC(C)C)NC(=O)[C@H](Cc1ccc(O)cc1)NC(=O)[C@@H]1CCCN1C(=O)[C@@H]1CCCN1C(=O)[C@H](CCCCN)NC(=O)[C@H](CC(=O)O)NC(=O)[C@@H](N)C(C)C)C(=O)N[C@@H](Cc1ccc(O)cc1)C(=O)N[C@@H](CC(N)=O)C(=O)N[C@@H](CCCN)C(N)=O — tolerability (mouse; subcutaneous, 600 mg/kg total, outcome: not toxic): not toxic
CC(C)[C@H](Nc1nc(Cl)nc2c1ncn2[C@H]1[C@H](O)[C@H](O)[C@]2(CO)C[C@H]12)C1CC1 — Ki (ADORA1 (Homo sapiens, UniProt P30542); binding; added: [3H]R-PIA): 0.104 ± 0.006 µM

Repeated from above:
CCCCCC(=O)NC(C(=O)NCc1ccc(NC(=N)N)cc1)c1ccc(OCc2ccccc2)cc1 (stereo not drawn) — IC50 (Genome polyprotein, NS2B-NS3 protease (dengue virus type 2, UniProt P29990); protease activity, inhibitor; pH 7.5, added: AMC substrate): 25 µM
Cc1nnc(CC2N=C(c3ccc(Cl)cc3)c3ccccc3-n3c(C)nnc32)o1 (stereo not drawn) — IC50 (Bromodomain-containing protein 4, BD1 (BRD4, Homo sapiens, UniProt O60885); biochemical; bromodomain 1): 0.02 µM
